Published values pooled from the literature.
± marks the error that the study gave.

Cc1cc(-c2ccccc2)c2ccc3c(-c4ccccc4)cc(C)nc3c2n1
IC50 (A549, B16-F10, Caco-2, HT-29, MDA-MB-231; cell viability; dark, all lines): > 100 µM

COc1ccc(C[C@H]2COC(=O)[C@@H]2Cc2ccc(OCc3cn(CC(=O)Nc4ccccc4N)nn3)c(OC)c2)cc1OC
IC50 (Kasumi 1; cell growth or viability, CCK-8; 48 h): > 5 µM

COc1cccc2c1C(=O)c1c(O)c3c(c(O)c1C2=O)C[C@@](O)(C(=O)CO)C[C@@H]3O[C@H]1C[C@H](N)[C@H](O)[C@H](C)O1
IC50 (HCT-15; cell growth or viability, XTT; 72 h): 0.252 µg/mL

COc1cc(/C=C/C(=O)CC(=O)/C=C/c2ccc(OC(=O)C3=CC=C[CH]3[Fe][CH]3C=CC=C3)c(OC)c2)ccc1O (centres unmarked)
IC50 (RKO; cell growth or viability, MTT): 23.2 µM

CC(C)Oc1ccc(C(=O)Cn2ccnc2)cc1-n1c(CN2CCN(C(=O)COc3ccc(Cl)cc3)CC2)nc2ccccc2c1=O
IC50 (DOHH-2; cell viability, CellTiter-Glo; 24 h): < 0.1 µM

O=C(N/N=C/c1ccc(CN2CCOCC2)cc1)Nc1cc2c(Nc3ccc(F)c(Cl)c3)ncnc2cc1O[C@H]1CCOC1
IC50 (NCI-H1975; cell growth or viability, MTT; 72 h): 65.2 µM

COc1cc(O)c2c(=O)c(O)c(-c3ccc(O)c(O)c3)oc2c1
IC50 (BV-2; TNF-alpha release, ELISA; 24 h, added: LPS 10 µg/mL + MLA 10 µM): 105 µM

Fc1cc(-c2nc3ccc(Cl)cc3[nH]2)ccc1OCCN1CCOCC1
IC50 (DND41; cell growth or viability, MTS; 72 h): > 100 µM

O=C(/C=C/c1ccc(F)cc1)C(=CC1=CC=C[CH]1[Fe][CH]1C=CC=C1)C(=O)/C=C/c1ccc(F)cc1 (centres unmarked)
IC50 (RKO; cell growth or viability, MTT): 5.08 µM

CN(C)C/C=C/C(=O)Nc1cc2c(Nc3ccc(F)c(Cl)c3)ncnc2cc1O[C@H]1CCOC1
IC50 (MCF7, HCT-116, PC-3, A549; cell growth, MTT; range over cell lines): 5.1 to 10 µM

CCN(CC)CCOc1ccc(-c2nc3ccc(F)cc3[nH]2)cc1F
IC50 (DND41; cell growth or viability, MTS; 72 h): 30.3 µM

COc1cc2ncnc(Nc3ccc(F)c(Cl)c3)c2cc1NC(=O)N/N=C/c1ccc(CN2CCCCC2)cc1
IC50 (NCI-H1975; cell growth or viability, MTT; 72 h): 63.4 µM

CCCn1cnc2ccc(-c3ccc4sc(NC(=O)Nc5ccc(F)cc5)nc4c3)cc2c1=O
IC50 (NCI-H1975; cell growth or viability, MTT; 72 h): 0.49 µM

β-secretase inhibitor IV
IC50 (H4 overexpressing human APP Swedish; Abeta42 formation; 24 h): 0.216 µM

CC[n+]1c(/C=C/C=C2/N(C)c3ccccc3C2(C)C)sc2ccccc21
IC50 (hiPSC hepatic differentiation phase II; cell viability, CCK-8; 48 h): 2.16 ± 0.25 µM

CC(=O)C(=O)O
IC50 (PANC-03-27; glucose-induced ECAR; 20 min): 420 ± 90 µM

CCN(CC)CCOc1ccc(-c2nc3ccc(F)cc3[nH]2)cc1
IC50 (DND41; cell growth or viability, MTS; 72 h): 43.4 µM

COc1cc2ncnc(Nc3ccc(F)c(Cl)c3)c2cc1NC(=O)N/N=C/c1ccc(N(C)C)cc1
IC50 (NCI-H1975; cell growth or viability, MTT; 72 h): 40.7 µM

NC1(c2ccc(-c3nc4ccn5c(=O)[nH]nc5c4cc3-c3ccccc3)cc2)CCC1
IC50 (MDA-MB-231 LINK-A PIP3-BM +/+; AKT phosphorylation, AlphaScreen SureFire, item: AKT pSer473 over total AKT; added: EGF 200 nM): 16.2 µM

COc1ccc(/C=C/CN2CCN(c3ncc(C(=O)NO)cn3)CC2)cc1
IC50 (HEL; apoptosis induction, annexin V/PI flow cytometry; 24 h): 0.165 ± 0.00213 µM

CCOC(=O)OCOc1c(-c2ccc(-c3ccc(OC(F)(F)F)cc3)cc2)c(C)nc2cc(OC)c(Cl)cc12
IC50 (HeLa and HCT-116 average; cell viability, MTT; 48 h): 19 µM

COc1ccc(/C=C/C(=O)CC(=O)/C=C/c2ccc(OC(=O)C3=CC=C[CH]3[Fe][CH]3C=CC=C3)c(OC)c2)cc1OC (centres unmarked)
IC50 (RKO; cell growth or viability, MTT): 64.3 µM

CNC(=O)c1cc(Oc2ccc(NC(=O)Nc3ccc(Cl)c(C(F)(F)F)c3)cc2)ccn1
IC50 (MHCC97H cells; cell viability, MTT; concentration not given, added: pralatrexate 1): 0.1 µM

C[C@]1([N+](=O)[O-])C(=O)c2cc(C(F)(F)F)ccc2O[C@@H]1CC(=O)NC12CC3CC(CC(C3)C1)C2
IC50 (PC-3M; cell growth or viability, SRB; 96 h): 12.9 µM

CCN(CC)Cc1ccc(/C=N/NC(=O)Nc2cc3c(Nc4ccc(F)c(Cl)c4)ncnc3cc2O[C@H]2CCOC2)cc1
IC50 (NCI-H1975; cell growth or viability, MTT; 72 h): 62.6 µM

CCNC(=O)Nc1ccc(S(=O)(=O)Oc2cccnc2C(C)C)cc1
IC50 (HT-1080; cell growth or viability, SRB; 48 h): 1 µM

CC(C)n1nc(C#Cc2cccc(NC(=O)c3cccc(C(F)(F)F)c3)c2)c2c(N)ncnc21
IC50 (Ba/F3 BCR-ABL; cell growth, MTT; 48 h): 0.008 µM

O=c1[nH]nc(O)c2c(-c3cccc(Cl)c3)c3n(c12)CCn1cccc1-3
IC50 (PC-3; cell growth or viability, MTT; 48 h): 30 µM

CCCCCCNC(=O)n1cc(F)c(=O)[nH]c1=O
IC50 (HT-1080; cell growth or viability, MTT; 72 h): 67 µM

CC(C)c1cc(CNc2nc(Nc3cc(C4CC4)[nH]n3)cc(N3CCN(C)CC3)n2)on1
IC50 (primary CLL cells; protein level decrease, flow cytometry; 24 h, OP9 stromal co-culture): 2.96 µM

CCN(CC)c1ccc(/C=N/NC(=O)Nc2cc3c(Nc4ccc(F)c(Cl)c4)ncnc3cc2OC)cc1
IC50 (NCI-H1975; cell growth or viability, MTT; 72 h): 40.3 µM

COc1cc(O)c(Cc2ccc(O)cc2)c2c1-c1ccc(O)cc1CC2
IC50 (BV-2; NO release, inhibitor, Griess; LPS-stimulated): 2.96 µM

COc1ccc(C[C@H]2COC(=O)[C@@H]2Cc2ccc(OCc3cn(CC(=O)NO)nn3)c(OC)c2)cc1OC
IC50 (MV4-11; cell growth or viability, CCK-8; 48 h): > 5 µM

CCNC(=O)Nc1ccc(S(=O)(=O)Oc2cnccc2I)cc1
IC50 (HT-1080; cell growth or viability, SRB; 48 h): 3.2 µM

COc1cc(C[C@H]2C(=O)OC[C@@H]2Cc2ccc(OC)c(OC)c2)ccc1O
IC50 (Kasumi 1; cell growth or viability, CCK-8; 48 h): > 30 µM

CCCNC(=O)Nc1ccc(S(=O)(=O)Oc2cnccc2I)cc1
IC50 (HT-1080; cell growth or viability, SRB; 48 h): 3.1 µM

O=C(COc1ccc(-c2nc3ccc(Cl)cc3[nH]2)cc1)N1CCOCC1
IC50 (DND41; cell growth or viability, MTS; 72 h): 34 µM

c1ccc(P(=NCc2ccccn2)(c2ccccc2)c2ccccc2)cc1
IC50 (A2780cisR (cisplatin-resistant); cell growth, MTT; 74 h, 1% DMSO): > 50 µM

C[C@]1([N+](=O)[O-])C(=O)c2ccc(F)cc2O[C@@H]1CC(=O)NC12CC3CC(CC(C3)C1)C2
IC50 (PC-3M; cell growth or viability, SRB; 96 h): 12.5 µM

COc1ccc(/C=C/C(=O)CC(=O)/C=C/c2ccc(OC(=O)C3=CC=C[CH]3[Fe][CH]3C=CC=C3)cc2)cc1OC (centres unmarked)
IC50 (RKO; cell growth or viability, MTT): 149 µM

CCNC(=O)Nc1ccc(S(=O)(=O)Oc2cccnc2Br)cc1
IC50 (HT-1080; cell growth or viability, SRB; 48 h): 3.3 µM

Cc1ccc(C(CS(=O)(=O)c2ccccc2)=NN=C2N=C(c3ccc(Br)cc3)CS2)cc1
IC50 (WM 266-4; cell growth or viability, MTT; 48 h): 4.52 µM

CO[C@@]12[C@H](COC(N)=O)C3=C(C(=O)C(C)=C(N)C3=O)N1C[C@@H]1N[C@@H]12
IC50 (HCT-15; cell growth or viability, XTT; 72 h): 3.53 µg/mL

Cc1ccc2nc(NCCN)c3ncc(C)n3c2c1
IC50 (SGC-7901; cell viability, MTT; 72 h): 7.1 ± 1.8 µM

Cc1c(C(=O)Nc2ccc(N3C[C@@H](C)O[C@@H](C)C3)nc2)cccc1-c1ccc(OC(F)(F)F)cc1
IC50 (mouse Medulloblastoma cell; cell growth or viability, thymidine uptake; 48 h): 0.006 µM

O=C(Cc1ccc(Cl)cc1)Nc1nc2ccccc2n1Cc1ccc(Cl)cc1
IC50 (MDA-MB-231-HRE-Luc cells; HIF reporter gene, inhibitor; 24 h, hypoxia 1% O2): 2.77 ± 1.39 µM

COc1ccc(OC)c(/C=C2\CC/C(=C\c3ccc(O)c(OC)c3)C2=O)c1
IC50 (SGC-7901; cell growth or viability, MTT; 72 h): 3.9 µM

O=C1C(SCCO)=C(SCCO)C(=O)c2ccccc21
IC50 (human MSC hMSC-OD1; cell viability, CCK-8; 48 h, osteogenic differentiation day 1): 5.33 ± 0.6 µM

[Ala11,D-Leu15]orexin B
IC50 (rat cortical primary neurons; cAMP formation, antagonist; 15 min, added: forskolin 1 µM): 0.042 ± 0.002 µM

COc1cc(O)c2c(c1)O[C@H](c1ccc(O)cc1)CC2=O
IC50 (BV-2; TNF-alpha release, ELISA; 24 h, added: LPS 10 µg/mL): 158 µM

COc1ccc2c(c1)C(=O)[C@](C)([N+](=O)[O-])[C@@H](CC(=O)NC13CC4CC(CC(C4)C1)C3)O2
IC50 (PC-3M; cell growth or viability, SRB; 96 h): 13.1 µM

C=CC1=C(C)c2cc3[nH]c(cc4nc(cc5[nH]c(cc1n2)c(C)c5CCC(=O)O)C(CCC(=O)O)=C4C)c(C)c3C=C
IC50 (RPE-1; cell viability, resazurin; 48 h, dark): > 100 µM

c1ccc2[nH]c(-c3ccc(OCc4cn(CCN5CCOCC5)nn4)cc3)nc2c1
IC50 (DND41; cell growth or viability, MTS; 72 h): 49.1 µM

COc1cc2ncnc(Nc3ccc(F)c(Cl)c3)c2cc1NC(=O)N/N=C/c1ccc(CN2CCN(C)CC2)cc1
IC50 (NCI-H1975; cell growth or viability, MTT; 72 h): 15.3 µM

navitoclax
IC50 (human platelets; cell viability, MTS; 48 h): 0.242 µM

CC[PH](CC)(CC)[Au][S][C@@H]1O[C@H](COC(C)=O)[C@@H](OC(C)=O)[C@H](OC(C)=O)[C@H]1OC(C)=O
IC50 (A2780cisR; cell growth or viability, MTT; 72 h, drug-resistant strain): 2.6 µM

COc1cc(/C=C/C(=O)N2CCC=CC2=O)cc(OC)c1OC
IC50 (MEF/GFP-Stat3α; anchorage-independent colony growth): 1.4 µM

O=C(N/N=C/c1ccc(OCCCN2CCOCC2)cc1)Nc1cc2c(Nc3ccc(F)c(Cl)c3)ncnc2cc1O[C@H]1CCOC1
IC50 (NCI-H1975; cell growth or viability, MTT; 72 h): 24.8 µM

CCCCCCCCCCCCCC(=O)OC[C@H](COP(=O)([O-])OCC[N+](C)(C)C)OC(=O)CCCCCCCCCCCCC
IC50 (HT-1080; cell growth or viability, MTT; 72 h): 20 µM

Some of these lines once more:
c1ccc2[nH]c(-c3ccc(OCc4cn(CCN5CCOCC5)nn4)cc3)nc2c1
IC50 (DND41; cell growth or viability, MTS; 72 h): 49.1 µM

C=CC1=C(C)c2cc3[nH]c(cc4nc(cc5[nH]c(cc1n2)c(C)c5CCC(=O)O)C(CCC(=O)O)=C4C)c(C)c3C=C
IC50 (RPE-1; cell viability, resazurin; 48 h, dark): > 100 µM

CCCn1cnc2ccc(-c3ccc4sc(NC(=O)Nc5ccc(F)cc5)nc4c3)cc2c1=O
IC50 (NCI-H1975; cell growth or viability, MTT; 72 h): 0.49 µM
